Experimental data pooled from the literature.
“And” joins repeats or separate records; there may be more than shown.
CDK1 with cyclin B: Cyclin-dependent kinase 1, with cyclin B (CDK1, Homo sapiens, UniProt P06493)
CDK1 with cyclin A2: Cyclin-dependent kinase 1, with cyclin A2 (CDK1, Homo sapiens, UniProt P06493)
CDK1: Cyclin-dependent kinase 1 (CDK1, Homo sapiens, UniProt P06493)

SMILES | target | assay | conditions | how to read | quantity | value
NC(=O)C[C@H]1CCc2sc3ncnc(O[C@H]4CC[C@H](N5CCOCC5)CC4)c3c21 | Cyclin-dependent kinase 1, with cyclin E (CDK1, Homo sapiens, UniProt P06493) | enzyme activity, inhibitor | 10 µM | – | inhibition | 11%
O=C(Cc1ccc(OCc2ccccc2)cc1)NC1(C(=O)O)CCN(C(=O)c2ccc(-c3cccc(Cl)c3)cc2)CC1 | CDK1 with cyclin B | enzyme activity, inhibitor | 10 µM | – | activity vs control | 115%
COCC12C(=O)NC3C4(C(OC)CC1O)C1CC5(O)C(OC)C(O)C(OC(C)=O)(C1C5OC(=O)c1ccccc1)C3(O)C(OC)C24 (stereo not drawn) | Cyclin-dependent kinase 1, with cyclin A (CDK1, Homo sapiens, UniProt P06493) | kinase activity, inhibitor, ProQinase kinase profiling | 25 µM | relative to: control | remaining activity | 71% and 77%
CN1C[C@@H](c2c[nH]c3cc(Br)ccc23)NC[C@@H]1c1c[nH]c2cc(Br)ccc12 | CDK1 with cyclin A2 | enzyme activity, inhibitor | 10 µM | – | remaining activity | 106%
COc1ccc(NC(=O)Nc2ccc3c(c2)C(=O)N(C(C)CO)CC(C)C(CN(C)Cc2ccc4c(c2)OCO4)O3)cc1 (stereo not drawn) | CDK1 with cyclin B | kinase activity, KinaseProfiler | 0.03 µM, species human | relative to: control | remaining activity | 100%
CNC(=O)C[C@H](Cc1ccc(C#N)cc1)NC(=O)c1cc(-c2ccc(CN[C@H](C)c3ccc(C)cc3)o2)ccc1Cl | CDK1 with cyclin B | enzyme activity, inhibitor | 1 µM | – | activity vs control | 105%
C=CC(=O)N1Cc2nc(-c3cc(-c4cc(Cl)cnc4Cl)c(F)cc3F)n(-c3ccncn3)c2C1 | CDK1 with cyclin B | cell-free assay, inhibitor | 1 µM | – | inhibition | 6.2%
C=CC(=O)Nc1cccc(-c2cnc3[nH]cc(C(=O)NC(C)(C)C)c3n2)c1 | CDK1 | enzyme activity, inhibitor | 0.1 µM | – | inhibition | 37%
O=C=[N][Ru-4]123([n]4c5ccc(O)cc5c5c6c(c7cc(F)c[n+]1c7c54)C(=O)NC6=O)[S+]1CC[S+]2CC[S+]3CC1 (stereo not drawn) | CDK1 with cyclin B | enzyme activity | 100 nM, human enzyme, added: 10 µM ATP | relative to: untreated | remaining activity | 120%
CN1CCN(Cc2ccc(-c3ccc(CO[C@H]4CCC[C@@H]4NC(=O)c4cc(-c5cnn(C)c5)cnc4N)cc3)cc2)CC1 | CDK1 with cyclin A2 | enzyme activity, inhibitor | 0.1 µM | – | inhibition | 2%
CCn1cc(C(=O)O)c(=O)c2c(N)c(F)c(NC3CCCCC3)cc21 | CDK1 with cyclin A2 | kinase activity | 0.1 µM, added: ATP at Km | – | inhibition | 9.3%
NC(=O)[C@@H](O)C[C@H]1CCc2sc3ncnc(O[C@H]4CC[C@H](N5CCOCC5)CC4)c3c21 | CDK1 with cyclin B | enzyme activity, inhibitor | 10 µM | – | inhibition | 27%
Cc1cc(C)nc(NS(=O)(=O)c2ccc(NC(=O)CCCOc3ccc(C(C)(C)C)cc3)cc2)n1 | CDK1 | enzyme activity, inhibitor, ADP detection | 100 µM | – | inhibition | 91%
Cc1cc(C)nc(Nc2ccc([C@@H]3CCCN(C(=O)/C=C/c4c(C)nn(C)c4C)C3)nc2)n1 | CDK1 | enzyme activity, inhibitor, ADP detection | 1 µM | – | activity vs control | 99%
Nc1ncc(-c2cc(-c3cnn(CC(F)(F)F)c3)ncc2F)nc1C(=O)NC1CNCC(F)C1 (stereo not drawn) | CDK1 with cyclin B | enzyme activity | 1 µM | relative to: DMSO control | remaining activity | 87.4%

For quick reference, copied from above:
SMILES | target | assay | conditions | how to read | quantity | value
O=C=[N][Ru-4]123([n]4c5ccc(O)cc5c5c6c(c7cc(F)c[n+]1c7c54)C(=O)NC6=O)[S+]1CC[S+]2CC[S+]3CC1 (stereo not drawn) | CDK1 with cyclin B | enzyme activity | 100 nM, human enzyme, added: 10 µM ATP | relative to: untreated | remaining activity | 120%
CN1CCN(Cc2ccc(-c3ccc(CO[C@H]4CCC[C@@H]4NC(=O)c4cc(-c5cnn(C)c5)cnc4N)cc3)cc2)CC1 | CDK1 with cyclin A2 | enzyme activity, inhibitor | 0.1 µM | – | inhibition | 2%
